Experimental data gathered from unrelated publications.
Compare with care: the assays were run in different laboratories. Values joined by “and” are separate records of one study, mostly repeats; a detail may differ.

C[C@@H](Nc1cc(F)cc(F)c1)c1cc(C(=O)N(C)C)cc2c(=O)cc(N3CCOCC3)oc12 — result for “any dose interruption”: 40% (advanced solid tumour patients; oral, 120 mg twice daily, continuous monotherapy).
CCc1c(-c2ccccc2)c(-c2ccccc2)nn1-c1ccccc1-c1cccc(OCC(=O)O)c1 gave a concentration of 3990 ng/g and 2060 ng/g (Sprague-Dawley rat, heart; oral, 10 mg/kg, 4 h).
With CCn1c(C(=O)N(C2CC2)C2CC2)cc2c3c(ncn3C)c(Nc3cc(C)n(C)n3)nc21 the plasma concentration was 5500 ng/mL (cancer patients; oral, 200 mg twice daily, day 15, 336.5 h).
CC(=O)N(C)[C@H]1CCN(C(=O)c2cnc3c(c2)C[C@](C)(c2ccc(F)cc2)N3)C1 — result for “any adverse event”: 100% (healthy male subjects, multiple rising dose; oral, 15 mg once daily).
O=C(O)CCC(=O)O.[2H]C([2H])([2H])Oc1cc(C)c2[nH]ccc2c1CN1CC[C@@H](C2CC2)C[C@H]1c1ccc(C(=O)O)cc1 — result for “subjects with papular urticaria TEAE”: 12.5% (multiple ascending dose; healthy Chinese subjects; 200 mg once daily).
With C[C@H]1Oc2cc(cnc2N)-c2c(nn(C)c2C#N)CN(C)C(=O)c2ccc(F)cc21 the clearance was 148 mL/min (population PK; healthy participants and patients, plasma; oral, 100 mg, median, single dose).
O=C(OC(C(F)(F)F)C(F)(F)F)N1CCN(Cc2cccc(Oc3ccccc3)c2)CC1 has a k2 of 0.308 min⁻¹ (PET blocking study; rhesus monkey, brain STR; 0.01 mg/kg, compound pretreatment, added: [18F]T-401 tracer).
CNC(=O)c1ccc(-c2cnc3ncc(Cc4ccc5ncccc5c4)n3n2)cc1F — result for “subjects with adverse event”: 0% (healthy human subjects; oral, 400 mg, Fatigue, grade 3, all causality, added: rifampicin 600 mg/day).
Under “subjects with procedural pain”, Cc1cc(-c2nccc3c2ccn3CC(=O)Nc2ccc(-c3cnccn3)cn2)ccn1 is recorded as 12.5% (human; 5 mg once daily, multiple ascending dose).
Under “patients with adverse event”, Cc1cc(NC2CCN(C(=O)OC3CCN(C(=O)/C=C/CN(C)C)C3)CC2)n2ncc(C(C)C)c2n1 (stereo not shown) is recorded as 0% (Phase I dose escalation CTCAE v4.0, refers to: maculo-papular rash; patients with advanced solid tumours; dose not given, Total dosing grade 3 or higher).
For C=CCN1CC(=O)N2[C@@H](Cc3ccc(O)cc3F)C(=O)N(Cc3cccc(N4CC(N5CCN(CC)CC5)C4)n3)C[C@@H]2N1C(=O)NCc1ccccc1, “treatment-related adverse events” read 55.6% (refers to: Vomiting; advanced solid tumour patients; oral, 100 mg twice daily, expansion part, any grade).
For COc1cc(N2CCC(N3CCN(C)CC3)CC2)ccc1Nc1ncc(Cl)c(Nc2ccccc2P(C)(C)=O)n1, the body weight was 23.9 g and 23.3 g and 24.8 g and 22.4 g and 25.1 g (nude mice, NCI-H3122 xenograft; intraperitoneal, 10 mg/kg every other day, day 7).
Cc1cc(Nc2ccc(S(F)(F)(F)(F)F)cc2)n2nc(C(C)(F)F)nc2n1 — result for “adverse event Nausea”: 0% (Plasmodium vivax malaria patients; oral, 800 mg).
COc1ccnc(C(=O)N[C@@H](CO)C(=O)O)c1OCOC(=O)C(C)C — result for “DT50 whole system”: 1.4 days (Staffordshire loam sediment, aerobic dark; 20 °C).
The ulcer number of Cc1ccc(-c2cc(C(F)(F)F)nn2-c2ccc(S(N)(=O)=O)cc2)cc1 is reported as 50% (rat, stomach; concentration not given, 4 h; baseline: indomethacin).
Under “grade 3 or worse TEAEs”, COc1c(OCCCN2CCOCC2)ccc2c1N=C(NC(=O)c1cnc(N)nc1)N1CCN=C21 is recorded as 91% (relapsed iNHL patients; intravenous, 60 mg).
Under “participants with TEAE oropharyngeal pain”, O=C1CC[C@H](N2Cc3cc(N4CCN(CC5CCN(c6ccc([C@@H]7c8ccc(O)cc8CC[C@@H]7c7ccccc7)cc6)CC5)CC4)ccc3C2=O)C(=O)N1 is recorded as 4.2% (human; oral, 200 mg, added: dabigatran etexilate 75 mg).
The DHEA-S level of N#Cc1ccc2c(c1)[C@H]1CCCN(C(=O)c3ccc4[nH]cnc4c3)[C@H]1C2 is reported as 6.8 µmol/L (human, male; 20 mg, day 7).
Cc1ccc(C(=O)N(CCCN)C(c2nc3snc(C)c3c(=O)n2Cc2ccccc2)C(C)C)cc1 (stereo not shown): “grade ≥3 hyperbilirubinemia patients” 0% (human patients; intravenous, 4 mg/day).

Some of these lines once more:
Under “subjects with procedural pain”, Cc1cc(-c2nccc3c2ccn3CC(=O)Nc2ccc(-c3cnccn3)cn2)ccn1 is recorded as 12.5% (human; 5 mg once daily, multiple ascending dose).
Under “patients with adverse event”, Cc1cc(NC2CCN(C(=O)OC3CCN(C(=O)/C=C/CN(C)C)C3)CC2)n2ncc(C(C)C)c2n1 (stereo not shown) is recorded as 0% (Phase I dose escalation CTCAE v4.0, refers to: maculo-papular rash; patients with advanced solid tumours; dose not given, Total dosing grade 3 or higher).
